Assay results gathered from unrelated publications.
Every numbered part comes from another study and shows a few of its results, in no order. Changes are numbered by the printed parent chain.

Set 1 — technique: protein-binding microarray; form: hairpin DNA; medium: in vitro; concentration: not given; reference: not given; direction: higher = stronger binding; quantity: median fluorescence
Target: Microphthalmia-associated transcription factor, full length (MITF, Homo sapiens, UniProt O75030-10, residues 1-413)
Notes: whole hairpin DNA, median over replicate spots
Strand = CACTTGGCACGTGATTTTGGTCCTCCAAAATCACGTGCCAAGTGACACTC; value = 27300 a.u.
Strand = GAGGCCTAGCGCGTGCTGCCTCCTGGCAGCACGCGCTAGGCCTCACACTC (5mC at 34); value = 16500 a.u.
Strand = GAGGCCTAGCACGTGCTGCCTCCTGGCAGCACGTGCTAGGCCTCACACTC (5mC at 32); value = 10800 a.u.
Strand = CACTTAGCACGTGCGTTTGGTCCTCCAAACGCACGTGCTAAGTGACACTC (5mC at 14 30); value = 16100 a.u.
Strand = GAGGCCCGGCACGTGCTGCCTCCTGGCAGCACGTGCCGGGCCTCACACTC (5mC at 7 37); value = 23200 a.u.
Strand = GAGGCCTGGCACGTGCTGCCTCCTGGCAGCACGTGCCAGGCCTCACACTC; value = 23800 a.u.
Strand = CACTTAGCACGTCATTTTGGTCCTCCAAAATGACGTGCTAAGTGACACTC (5mC at 13); value = 4450 a.u.
Strand = GAGGCCCAGCACGTGCTGCCTCCTGGCAGCACGTGCTGGGCCTCACACTC; value = 21800 a.u.
Strand = GAGGCCTAGCACGTGCTGCCTCCTGGCAGCACGTGCTAGGCCTCACACTC (5mC at 10); value = 11800 a.u.
Strand = CACTTACGACGTGATTTTGGTCCTCCAAAATCACGTCGTAAGTGACACTC (5mC at 37); value = 6080 a.u.
Strand = CACTTAGCCGGTGATTTTGGTCCTCCAAAATCACCGGCTAAGTGACACTC (5mC at 35); value = 4520 a.u.
Strand = GAGGCCGAGCACGTGCTGCCTCCTGGCAGCACGTGCTCGGCCTCACACTC; value = 25600 a.u.
Strand = CACTCGGCACGTGATTTTGGTCCTCCAAAATCACGTGCCGAGTGACACTC (5mC at 39); value = 27000 a.u.
Strand = CACTTAGCACGTGCTTTTGGTCCTCCAAAAGCACGTGCTAAGTGACACTC; value = 23200 a.u.
Strand = GAGGCCTAGCACGTGGTGCCTCCTGGCACCACGTGCTAGGCCTCACACTC; value = 23300 a.u.
Strand = GAGGCCTAGCACGTGATGCCTCCTGGCATCACGTGCTAGGCCTCACACTC; value = 30100 a.u.
Strand = GAGGCCTAGCAGGTGCTGCCTCCTGGCAGCACCTGCTAGGCCTCACACTC (5mC at 33); value = 5430 a.u.
Strand = CACTTAGCGCGTGATTTTGGTCCTCCAAAATCACGCGCTAAGTGACACTC (5mC at 8); value = 14200 a.u.
Strand = CACTTAGCACGTGAGTTTGGTCCTCCAAACTCACGTGCTAAGTGACACTC; value = 21700 a.u.

Set 2 — technique: DHFR PCA, dose-response; medium: yeast; notes: Hill fit, not affinity; together with: (+)-ABA, dose series; direction: lower = more sensitive; quantity: ABA EC50
Target: ABI1, truncated, D143A, DHFR fusion (Arabidopsis thaliana, UniProt P49597)
Starting sequence: PYL1, truncated, DHFR fusion (Arabidopsis thaliana, UniProt Q8VZS8); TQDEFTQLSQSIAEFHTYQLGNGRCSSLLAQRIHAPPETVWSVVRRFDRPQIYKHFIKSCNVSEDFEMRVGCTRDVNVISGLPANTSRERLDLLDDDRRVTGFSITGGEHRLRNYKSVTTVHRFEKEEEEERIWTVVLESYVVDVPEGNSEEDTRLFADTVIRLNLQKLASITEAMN
Substitution = V40L; value = 1260 µM
Substitution = H110P; value = 1.21 µM
Substitution = R123Q; value = 6.4 µM
Substitution = N77Q; value = 2.1 µM
Substitution = Q2P; value = 11 µM

Set 3 — technique: universal PBM; form: double-stranded DNA, one strand shown; medium: in vitro; concentration: 600 nM; direction: higher = stronger binding; quantity: E-score
Target: Sal-like protein 4, full length isoform A (SALL4, Homo sapiens, UniProt Q9UJQ4, residues 1-1053)
Sequence of UniProt Q9UJQ4 (whole entry, looked up): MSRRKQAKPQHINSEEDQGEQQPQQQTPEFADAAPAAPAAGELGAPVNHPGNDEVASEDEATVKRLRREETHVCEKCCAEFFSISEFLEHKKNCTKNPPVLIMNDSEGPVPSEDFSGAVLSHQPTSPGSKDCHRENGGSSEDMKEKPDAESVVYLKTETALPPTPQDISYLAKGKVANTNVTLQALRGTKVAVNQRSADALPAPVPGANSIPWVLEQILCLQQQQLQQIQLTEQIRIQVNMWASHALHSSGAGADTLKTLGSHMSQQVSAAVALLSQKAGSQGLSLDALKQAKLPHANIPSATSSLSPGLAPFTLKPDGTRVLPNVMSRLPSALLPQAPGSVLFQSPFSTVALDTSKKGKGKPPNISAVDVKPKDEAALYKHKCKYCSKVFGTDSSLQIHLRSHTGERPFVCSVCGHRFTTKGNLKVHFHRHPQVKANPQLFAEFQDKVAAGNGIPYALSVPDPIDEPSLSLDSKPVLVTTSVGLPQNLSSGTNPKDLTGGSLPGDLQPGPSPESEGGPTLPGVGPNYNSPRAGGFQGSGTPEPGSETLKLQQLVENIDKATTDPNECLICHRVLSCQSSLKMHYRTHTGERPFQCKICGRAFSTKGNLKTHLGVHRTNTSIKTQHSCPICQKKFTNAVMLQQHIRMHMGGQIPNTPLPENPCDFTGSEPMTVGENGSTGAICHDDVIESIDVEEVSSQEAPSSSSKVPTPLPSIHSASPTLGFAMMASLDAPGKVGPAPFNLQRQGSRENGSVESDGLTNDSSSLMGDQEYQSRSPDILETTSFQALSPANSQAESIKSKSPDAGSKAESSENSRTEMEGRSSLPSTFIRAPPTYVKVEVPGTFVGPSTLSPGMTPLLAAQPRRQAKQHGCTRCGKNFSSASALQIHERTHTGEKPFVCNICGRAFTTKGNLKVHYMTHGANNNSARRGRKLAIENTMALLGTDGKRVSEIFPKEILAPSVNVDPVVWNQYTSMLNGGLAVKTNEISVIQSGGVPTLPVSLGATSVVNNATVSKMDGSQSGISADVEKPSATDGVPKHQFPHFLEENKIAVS
Notes: 8-mer, flanks averaged, mean of replicates
Strand = GCATCGGA; value = -0.12
Strand = CTTCATTA; value = 0.279
Strand = ACTTGCAA; value = 0.196
Strand = CGTATTCC; value = 0.0607
Strand = CCCTGGAA; value = -0.241
Strand = CCGAAAAC; value = -0.0466
Strand = CAGTTCTA; value = 0.0336
Strand = CCGTCTTC; value = -0.18
Strand = AATGCGGC; value = -0.234
Strand = TACGCCAA; value = 0.00298
Strand = GGGGCGAC; value = -0.333
Strand = GCCTAGCA; value = -0.139
Strand = AAACGCCG; value = -0.0408
Strand = ACCTCCTA; value = -0.0281
Strand = AGCCGTCA; value = -0.128
Strand = ATGGAAGC; value = -0.0183
Strand = GTTAATAA; value = 0.392
Strand = CCCTCTTC; value = -0.119
Strand = GAATCTGA; value = 0.0247
Strand = CAACGGAG; value = -0.316
Strand = CGCTAATC; value = -0.059
Strand = AATAGCTC; value = -0.0362
Strand = CCGCACAG; value = -0.275
Strand = TCATCCAA; value = 0.129
Strand = GGGGCGAA; value = -0.235

Set 4 — target: FOSL1, bZIP domain (human); technique: DHFR protein complementation; medium: yeast; reference: wild-type JUN-FOS pair; direction: higher = stronger binding; quantity: binding fitness
Notes: single substitutions, most at no-binding floor
Starting sequence: JUN, bZIP domain (human); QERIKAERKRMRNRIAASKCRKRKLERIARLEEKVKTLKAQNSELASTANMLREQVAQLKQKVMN; partner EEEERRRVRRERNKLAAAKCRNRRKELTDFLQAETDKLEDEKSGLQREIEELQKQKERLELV
Substitution = K34S; value = -0.575 natural log
Substitution = E32L; value = -0.39 natural log
Substitution = R53S; value = -1.16 natural log
Substitution = E44G; value = -0.757 natural log
Substitution = S43I; value = -0.431 natural log
Substitution = V56K; value = -1.41 natural log
Substitution = K39I; value = -0.601 natural log
Substitution = A29G; value = -0.58 natural log
Substitution = Q41K; value = -0.749 natural log
Substitution = L52D; value = -1.43 natural log
Substitution = K36Y; value = -0.662 natural log
Substitution = K36G; value = -0.714 natural log
Substitution = A46L; value = -0.39 natural log
Substitution = I28L; value = -0.46 natural log
Substitution = L59V; value = -1.28 natural log
Substitution = L52P; value = -1.35 natural log
Substitution = A46P; value = -1.32 natural log

Set 5 — target: CCNF, cyclin fold, Cln2 fusion (human); technique: yeast growth competition, sequencing; medium: yeast; notes: strong parent motif; reference: not given; direction: higher = stronger binding; quantity: normalised enrichment score
Starting sequence: HIRA docking peptide (human); SLSKRKLELEVET
Substitution = SLAKRKLELEVET [S3A]; value = 4.42
Substitution = SASKRKLELEVET [L2A]; value = 1.53
Substitution = SLSKRKLEFEVET [L9F]; value = 6.03
Substitution = SLSKRALELEVET [K6A]; value = 0.836
Substitution = SLSKAKAELEVET [R5A L7A]; value = -0.0933
Substitution = ALSKRKLELEVET [S1A]; value = 2.51
Substitution = SLSKRKLALEVET [E8A]; value = 1.62
Substitution = SLSKKKLELEVET [R5K]; value = 0.431
Substitution = SLSKRKLELEVAT [E12A]; value = 0.746
Substitution = SLSARKLELEVET [K4A]; value = 1.01

Set 6 — technique: protein binding microarray; form: double-stranded DNA, one strand shown; medium: in vitro; concentration: not given; reference: not given; direction: higher = stronger binding; quantity: E-score
Target: Histone acetyltransferase KAT6A, winged helix 1, GST fusion (KAT6A, Homo sapiens, UniProt Q92794, residues 1-85)
Notes: 8-mer, flanks averaged, mean of 2 arrays, mostly near background
Construct (chain): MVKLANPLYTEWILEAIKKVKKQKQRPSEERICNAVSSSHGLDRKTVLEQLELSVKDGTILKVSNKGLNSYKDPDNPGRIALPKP
Strand = CACTCGCC; value = 0.113
Strand = ACGAACAC; value = -0.0628
Strand = CTGATATC; value = -0.138
Strand = GCATTCCC; value = 0.0603
Strand = ACTTATCA; value = -0.209
Strand = ACAAAATA; value = -0.258
Strand = ACCAAGGC; value = 0.0873
Strand = GAGTTCTA; value = -0.182
Strand = ACGAAAAA; value = -0.234
Strand = CGCCAGGC; value = 0.23
Strand = GGTTACCA; value = -0.0118
Strand = AAAATTGC; value = 0.076
Strand = GCTCACAC; value = -0.0952
Strand = CAAACGAA; value = -0.0747
Strand = CTAAAACC; value = 0.0439
Strand = GAGGGTTA; value = -0.0658
